Experimental data from different studies.
A part holds a random share of what one study measured. Values joined by “and” are separate records of one study, mostly repeats; a detail may differ. Substitutions count along the parent as printed.
Chain of UniProt P60842 (whole entry, looked up): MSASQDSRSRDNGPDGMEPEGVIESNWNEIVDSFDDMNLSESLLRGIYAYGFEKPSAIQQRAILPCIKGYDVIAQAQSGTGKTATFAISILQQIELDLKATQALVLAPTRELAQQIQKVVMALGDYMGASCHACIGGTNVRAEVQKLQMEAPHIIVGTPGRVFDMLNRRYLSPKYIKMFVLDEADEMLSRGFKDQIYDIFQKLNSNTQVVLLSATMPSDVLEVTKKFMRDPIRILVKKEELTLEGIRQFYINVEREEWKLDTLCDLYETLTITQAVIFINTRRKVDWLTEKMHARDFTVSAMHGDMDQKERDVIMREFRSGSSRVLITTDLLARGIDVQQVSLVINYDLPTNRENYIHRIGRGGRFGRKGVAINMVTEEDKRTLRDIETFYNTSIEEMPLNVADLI

Series 1
Target: CCNE2, cyclin fold, Cln2 fusion (human)
Method: yeast growth competition, sequencing
Medium: yeast
Setting: strong parent motif
Relative to: not given
Reading: higher = stronger binding
Starting sequence: viral docking peptide; CKVKRKLFGSENI
| Change | normalised enrichment score |
| --- | --- |
| R5A | 1.14 |
| R5K F8L | 0.232 |
| K6A | 1.96 |
| F8L | 0.0586 |

Further values, each from its own experiment
POLQ ATPase domain: DNA polymerase theta, ATPase domain (POLQ, Homo sapiens, UniProt O75417)
Chain of UniProt O75417 (whole entry, unmodified, looked up): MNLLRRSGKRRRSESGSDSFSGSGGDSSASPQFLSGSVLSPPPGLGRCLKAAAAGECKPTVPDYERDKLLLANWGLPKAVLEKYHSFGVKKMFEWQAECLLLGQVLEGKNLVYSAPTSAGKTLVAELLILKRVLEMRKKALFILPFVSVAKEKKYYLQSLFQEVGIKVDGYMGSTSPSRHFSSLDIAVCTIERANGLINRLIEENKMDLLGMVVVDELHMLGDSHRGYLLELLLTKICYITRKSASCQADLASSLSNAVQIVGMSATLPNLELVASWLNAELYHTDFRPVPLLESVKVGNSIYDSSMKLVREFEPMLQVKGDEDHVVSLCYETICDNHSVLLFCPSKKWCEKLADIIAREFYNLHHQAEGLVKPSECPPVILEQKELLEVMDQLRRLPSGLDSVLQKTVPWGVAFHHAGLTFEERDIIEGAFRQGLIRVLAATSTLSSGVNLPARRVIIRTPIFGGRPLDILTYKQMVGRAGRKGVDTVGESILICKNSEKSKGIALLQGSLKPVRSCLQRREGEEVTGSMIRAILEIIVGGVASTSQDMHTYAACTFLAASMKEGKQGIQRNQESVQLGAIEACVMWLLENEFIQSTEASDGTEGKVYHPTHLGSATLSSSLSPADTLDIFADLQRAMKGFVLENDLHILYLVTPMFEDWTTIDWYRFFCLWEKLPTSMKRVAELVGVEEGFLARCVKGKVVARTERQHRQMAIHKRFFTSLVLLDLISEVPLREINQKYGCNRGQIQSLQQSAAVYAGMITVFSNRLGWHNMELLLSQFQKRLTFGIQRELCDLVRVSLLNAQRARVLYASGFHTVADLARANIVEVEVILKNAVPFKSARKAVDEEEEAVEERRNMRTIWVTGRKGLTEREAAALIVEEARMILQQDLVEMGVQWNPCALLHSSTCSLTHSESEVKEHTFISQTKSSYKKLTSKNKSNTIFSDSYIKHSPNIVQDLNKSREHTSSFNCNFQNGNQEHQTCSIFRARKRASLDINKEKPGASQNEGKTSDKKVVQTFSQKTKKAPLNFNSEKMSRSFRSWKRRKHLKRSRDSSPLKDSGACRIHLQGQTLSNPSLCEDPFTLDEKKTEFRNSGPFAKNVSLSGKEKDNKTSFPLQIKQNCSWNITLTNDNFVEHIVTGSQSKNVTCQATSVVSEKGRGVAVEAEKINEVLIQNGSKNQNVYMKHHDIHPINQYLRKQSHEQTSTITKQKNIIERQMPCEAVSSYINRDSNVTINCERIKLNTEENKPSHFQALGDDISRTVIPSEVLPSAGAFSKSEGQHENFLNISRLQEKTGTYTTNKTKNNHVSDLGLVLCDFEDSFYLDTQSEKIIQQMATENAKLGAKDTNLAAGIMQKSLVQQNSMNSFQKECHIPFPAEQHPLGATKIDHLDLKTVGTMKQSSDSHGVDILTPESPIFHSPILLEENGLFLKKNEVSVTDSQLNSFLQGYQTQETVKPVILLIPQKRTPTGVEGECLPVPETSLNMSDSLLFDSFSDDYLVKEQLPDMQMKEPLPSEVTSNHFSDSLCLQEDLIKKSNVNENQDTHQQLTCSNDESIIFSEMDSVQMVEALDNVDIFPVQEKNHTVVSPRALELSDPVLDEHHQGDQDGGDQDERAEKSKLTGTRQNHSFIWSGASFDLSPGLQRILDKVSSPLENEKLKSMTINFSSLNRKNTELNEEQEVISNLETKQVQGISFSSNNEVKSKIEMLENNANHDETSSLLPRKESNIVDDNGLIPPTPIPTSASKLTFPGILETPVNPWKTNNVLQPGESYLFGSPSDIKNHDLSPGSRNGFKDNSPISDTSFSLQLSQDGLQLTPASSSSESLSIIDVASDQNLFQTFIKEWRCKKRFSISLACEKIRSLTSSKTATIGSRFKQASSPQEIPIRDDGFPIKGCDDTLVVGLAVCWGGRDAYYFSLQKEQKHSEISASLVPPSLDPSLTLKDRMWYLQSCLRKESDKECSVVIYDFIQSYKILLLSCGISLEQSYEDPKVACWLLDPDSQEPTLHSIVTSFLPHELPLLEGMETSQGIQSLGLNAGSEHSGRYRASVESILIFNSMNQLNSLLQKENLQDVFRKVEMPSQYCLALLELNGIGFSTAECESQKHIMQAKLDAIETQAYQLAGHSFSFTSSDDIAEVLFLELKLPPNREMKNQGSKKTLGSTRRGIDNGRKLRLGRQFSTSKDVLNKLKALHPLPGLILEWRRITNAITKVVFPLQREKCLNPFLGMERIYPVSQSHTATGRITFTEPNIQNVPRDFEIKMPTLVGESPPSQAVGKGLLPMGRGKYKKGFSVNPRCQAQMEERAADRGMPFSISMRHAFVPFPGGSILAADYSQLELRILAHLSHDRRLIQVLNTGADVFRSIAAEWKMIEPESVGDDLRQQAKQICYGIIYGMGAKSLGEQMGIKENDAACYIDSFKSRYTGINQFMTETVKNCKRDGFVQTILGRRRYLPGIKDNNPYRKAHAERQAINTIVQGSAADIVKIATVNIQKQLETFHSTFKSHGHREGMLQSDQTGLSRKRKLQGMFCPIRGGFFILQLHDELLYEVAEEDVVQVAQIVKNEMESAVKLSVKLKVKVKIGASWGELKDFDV
| SMILES | target or system | test | setting | how to read | endpoint | value |
| --- | --- | --- | --- | --- | --- | --- |
| C/C=C(\C)C(=O)N[C@@H](c1ccccc1)[C@@H](O)C(=O)O[C@H]1C[C@@]2(O)[C@@H](OC(=O)c3ccccc3)[C@@H]3[C@]4(OC(C)=O)CO[C@@H]4C[C@H](O)[C@@]3(C)C(=O)[C@H](OC(C)=O)C(=C1C)C2(C)C | POLQ ATPase domain | enzyme activity, inhibitor | 77 µM | relative to: untreated | remaining activity | 102% |
| COC(=O)[C@@H]1[C@@H](c2ccccc2)[C@]2(c3ccc(OC)cc3)Oc3cc(OC)cc(OC)c3[C@@]1(O)[C@@H]2O | EIF4A1 (Homo sapiens, UniProt P60842) | RNA clamping, fluorescence polarization | concentration not given, mean of two replicates, together with: FAM-labelled poly r(AG)8 RNA | – | fluorescence polarization change | 3.7 mP and 8 mP and 3.2 mP and 5.5 mP |
| N#Cc1nn(-c2c(Cl)cc(C(F)(F)F)cc2Cl)c(N)c1[S+]([O-])C(F)(F)F (centres unmarked) | HaCaT | – | 100 µM, 60 h | – | viability | 15.1% |
| COC[C@H]1OC(=O)c2coc3c2[C@@]1(C)C1=C(C3=O)[C@@H]2CCC(=O)[C@@]2(C)C[C@H]1OC(C)=O | POLQ ATPase domain | enzyme activity, inhibitor | 77 µM | relative to: untreated | remaining activity | 88.4% |

Some of these lines once more (further values, each from its own experiment):
| SMILES | target or system | test | setting | how to read | endpoint | value |
| --- | --- | --- | --- | --- | --- | --- |
| C/C=C(\C)C(=O)N[C@@H](c1ccccc1)[C@@H](O)C(=O)O[C@H]1C[C@@]2(O)[C@@H](OC(=O)c3ccccc3)[C@@H]3[C@]4(OC(C)=O)CO[C@@H]4C[C@H](O)[C@@]3(C)C(=O)[C@H](OC(C)=O)C(=C1C)C2(C)C | POLQ ATPase domain | enzyme activity, inhibitor | 77 µM | relative to: untreated | remaining activity | 102% |
